# Assay results collected from several papers.
# Each numbered part is a random draw from the data of one study; scales do not carry over between parts.
# UniProt Q15759, sequence (whole entry, looked up): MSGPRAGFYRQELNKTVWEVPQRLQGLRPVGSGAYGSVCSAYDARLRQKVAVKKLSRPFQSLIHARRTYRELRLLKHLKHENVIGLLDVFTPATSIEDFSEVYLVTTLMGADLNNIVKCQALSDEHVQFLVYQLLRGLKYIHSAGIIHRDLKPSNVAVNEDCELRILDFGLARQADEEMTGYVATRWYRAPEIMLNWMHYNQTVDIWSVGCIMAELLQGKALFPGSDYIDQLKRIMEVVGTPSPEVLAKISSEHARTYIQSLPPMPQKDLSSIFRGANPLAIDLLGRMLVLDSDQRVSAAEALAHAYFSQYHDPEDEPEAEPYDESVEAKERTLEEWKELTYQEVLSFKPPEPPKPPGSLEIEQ
# UniProt Q9UBF8, sequence (whole entry, looked up): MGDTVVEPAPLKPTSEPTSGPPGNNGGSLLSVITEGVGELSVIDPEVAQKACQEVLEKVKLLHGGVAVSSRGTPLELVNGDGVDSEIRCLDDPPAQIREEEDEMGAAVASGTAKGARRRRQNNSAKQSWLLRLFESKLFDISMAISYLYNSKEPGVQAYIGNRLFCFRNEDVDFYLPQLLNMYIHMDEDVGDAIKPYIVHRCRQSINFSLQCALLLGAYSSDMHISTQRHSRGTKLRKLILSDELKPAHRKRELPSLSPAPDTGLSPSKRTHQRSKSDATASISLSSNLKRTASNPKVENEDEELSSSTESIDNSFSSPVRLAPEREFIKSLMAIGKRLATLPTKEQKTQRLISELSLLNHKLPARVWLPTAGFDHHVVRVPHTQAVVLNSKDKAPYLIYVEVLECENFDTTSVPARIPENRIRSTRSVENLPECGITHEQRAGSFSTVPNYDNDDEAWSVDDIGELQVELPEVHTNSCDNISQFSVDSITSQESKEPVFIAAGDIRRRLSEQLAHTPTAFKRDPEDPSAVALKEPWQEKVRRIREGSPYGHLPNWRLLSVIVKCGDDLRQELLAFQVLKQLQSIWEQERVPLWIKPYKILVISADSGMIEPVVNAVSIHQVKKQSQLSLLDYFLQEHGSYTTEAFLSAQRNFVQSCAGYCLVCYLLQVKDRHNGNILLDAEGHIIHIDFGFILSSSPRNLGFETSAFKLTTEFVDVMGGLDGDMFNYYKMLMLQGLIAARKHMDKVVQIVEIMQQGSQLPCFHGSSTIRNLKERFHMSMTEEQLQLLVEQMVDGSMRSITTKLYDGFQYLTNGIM
# UniProt Q9Y2H1, sequence (whole entry, looked up): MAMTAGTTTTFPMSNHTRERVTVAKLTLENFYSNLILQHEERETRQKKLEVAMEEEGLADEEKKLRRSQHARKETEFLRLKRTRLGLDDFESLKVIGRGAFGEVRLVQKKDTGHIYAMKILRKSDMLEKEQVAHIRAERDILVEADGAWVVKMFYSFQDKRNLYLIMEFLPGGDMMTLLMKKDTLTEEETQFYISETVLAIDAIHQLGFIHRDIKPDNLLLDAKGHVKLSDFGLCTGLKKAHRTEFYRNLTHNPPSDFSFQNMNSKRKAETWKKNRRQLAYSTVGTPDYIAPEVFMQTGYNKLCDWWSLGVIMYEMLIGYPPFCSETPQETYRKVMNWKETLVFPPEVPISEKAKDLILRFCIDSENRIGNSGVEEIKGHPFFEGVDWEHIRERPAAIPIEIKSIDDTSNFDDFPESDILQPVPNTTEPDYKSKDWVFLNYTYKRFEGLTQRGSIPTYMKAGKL
# UniProt Q6P2M8, sequence (whole entry, looked up): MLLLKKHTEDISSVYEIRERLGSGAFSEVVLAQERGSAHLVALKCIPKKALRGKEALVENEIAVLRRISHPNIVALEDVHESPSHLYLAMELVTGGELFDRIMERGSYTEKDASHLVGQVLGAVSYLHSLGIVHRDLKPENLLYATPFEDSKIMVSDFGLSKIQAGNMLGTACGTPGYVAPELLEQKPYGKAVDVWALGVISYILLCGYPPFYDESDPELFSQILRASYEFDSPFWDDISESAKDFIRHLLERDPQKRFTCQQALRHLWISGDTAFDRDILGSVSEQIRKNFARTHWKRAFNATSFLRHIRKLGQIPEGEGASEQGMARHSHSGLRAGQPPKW

# Study 1
# SMILES: CCC(=N\O)/C(C)=C/c1ccc(F)cc1
# Effect on: cell-free assay
# Technique: competition with immobilised ligand
# Concentration: 1 µM
target,remaining binding [%]
"Mitogen-activated protein kinase 6 (MAPK6, Homo sapiens, UniProt Q16659)",73
"Calcium/calmodulin-dependent protein kinase type 1B (PNCK, Homo sapiens, UniProt Q6P2M8)",82
"Aurora kinase B (AURKB, Homo sapiens, UniProt Q96GD4)",68
"Cyclin-dependent kinase 9 (CDK9, Homo sapiens, UniProt P50750)",93
"Mitogen-activated protein kinase 4 (MAPK4, Homo sapiens, UniProt P31152)",75
"Interferon-induced, double-stranded RNA-activated protein kinase (EIF2AK2, Homo sapiens, UniProt P19525)",100
"Inhibitor of nuclear factor kappa-B kinase subunit epsilon (IKBKE, Homo sapiens, UniProt Q14164)",94
"Phosphatidylinositol 4-kinase beta (PI4KB, Homo sapiens, UniProt Q9UBF8)",50
"Angiopoietin-1 receptor (TEK, Homo sapiens, UniProt Q02763)",89
"Serine/threonine-protein kinase 38-like (STK38L, Homo sapiens, UniProt Q9Y2H1)",95
"Tyrosine-protein kinase Fer (FER, Homo sapiens, UniProt P16591)",74
"Mitogen-activated protein kinase kinase kinase kinase 1 (MAP4K1, Homo sapiens, UniProt Q92918)",92
"Tyrosine-protein kinase Fes/Fps (FES, Homo sapiens, UniProt P07332)",73
"Casein kinase I isoform gamma-1 (CSNK1G1, Homo sapiens, UniProt Q9HCP0)",99
"Proto-oncogene tyrosine-protein kinase receptor Ret (RET, Homo sapiens, UniProt P07949, V804M)",100
"Calcium/calmodulin-dependent protein kinase type II subunit delta (CAMK2D, Homo sapiens, UniProt Q13557)",99
"Receptor-type tyrosine-protein kinase FLT3 (FLT3, Homo sapiens, UniProt P36888)",100
"Serine/threonine-protein kinase B-raf (BRAF, Homo sapiens, UniProt P15056)",87
"Leucine-rich repeat serine/threonine-protein kinase 2 (LRRK2, Homo sapiens, UniProt Q5S007, G2019S)",100
"Ephrin type-B receptor 6 (EPHB6, Homo sapiens, UniProt O15197)",95
"Wee1-like protein kinase 2 (WEE2, Homo sapiens, UniProt P0C1S8)",83
"Receptor-interacting serine/threonine-protein kinase 4 (RIPK4, Homo sapiens, UniProt P57078)",83
"Activin receptor type-2B (ACVR2B, Homo sapiens, UniProt Q13705)",91
"Serine/threonine-protein kinase 32A (STK32A, Homo sapiens, UniProt Q8WU08)",100
"Epidermal growth factor receptor (EGFR, Homo sapiens, UniProt P00533, L858R/T790M)",100

# Study 2
# Target: DNA polymerase theta, ATPase domain (POLQ, Homo sapiens, UniProt O75417)
# UniProt O75417, sequence (whole entry, unmodified, looked up): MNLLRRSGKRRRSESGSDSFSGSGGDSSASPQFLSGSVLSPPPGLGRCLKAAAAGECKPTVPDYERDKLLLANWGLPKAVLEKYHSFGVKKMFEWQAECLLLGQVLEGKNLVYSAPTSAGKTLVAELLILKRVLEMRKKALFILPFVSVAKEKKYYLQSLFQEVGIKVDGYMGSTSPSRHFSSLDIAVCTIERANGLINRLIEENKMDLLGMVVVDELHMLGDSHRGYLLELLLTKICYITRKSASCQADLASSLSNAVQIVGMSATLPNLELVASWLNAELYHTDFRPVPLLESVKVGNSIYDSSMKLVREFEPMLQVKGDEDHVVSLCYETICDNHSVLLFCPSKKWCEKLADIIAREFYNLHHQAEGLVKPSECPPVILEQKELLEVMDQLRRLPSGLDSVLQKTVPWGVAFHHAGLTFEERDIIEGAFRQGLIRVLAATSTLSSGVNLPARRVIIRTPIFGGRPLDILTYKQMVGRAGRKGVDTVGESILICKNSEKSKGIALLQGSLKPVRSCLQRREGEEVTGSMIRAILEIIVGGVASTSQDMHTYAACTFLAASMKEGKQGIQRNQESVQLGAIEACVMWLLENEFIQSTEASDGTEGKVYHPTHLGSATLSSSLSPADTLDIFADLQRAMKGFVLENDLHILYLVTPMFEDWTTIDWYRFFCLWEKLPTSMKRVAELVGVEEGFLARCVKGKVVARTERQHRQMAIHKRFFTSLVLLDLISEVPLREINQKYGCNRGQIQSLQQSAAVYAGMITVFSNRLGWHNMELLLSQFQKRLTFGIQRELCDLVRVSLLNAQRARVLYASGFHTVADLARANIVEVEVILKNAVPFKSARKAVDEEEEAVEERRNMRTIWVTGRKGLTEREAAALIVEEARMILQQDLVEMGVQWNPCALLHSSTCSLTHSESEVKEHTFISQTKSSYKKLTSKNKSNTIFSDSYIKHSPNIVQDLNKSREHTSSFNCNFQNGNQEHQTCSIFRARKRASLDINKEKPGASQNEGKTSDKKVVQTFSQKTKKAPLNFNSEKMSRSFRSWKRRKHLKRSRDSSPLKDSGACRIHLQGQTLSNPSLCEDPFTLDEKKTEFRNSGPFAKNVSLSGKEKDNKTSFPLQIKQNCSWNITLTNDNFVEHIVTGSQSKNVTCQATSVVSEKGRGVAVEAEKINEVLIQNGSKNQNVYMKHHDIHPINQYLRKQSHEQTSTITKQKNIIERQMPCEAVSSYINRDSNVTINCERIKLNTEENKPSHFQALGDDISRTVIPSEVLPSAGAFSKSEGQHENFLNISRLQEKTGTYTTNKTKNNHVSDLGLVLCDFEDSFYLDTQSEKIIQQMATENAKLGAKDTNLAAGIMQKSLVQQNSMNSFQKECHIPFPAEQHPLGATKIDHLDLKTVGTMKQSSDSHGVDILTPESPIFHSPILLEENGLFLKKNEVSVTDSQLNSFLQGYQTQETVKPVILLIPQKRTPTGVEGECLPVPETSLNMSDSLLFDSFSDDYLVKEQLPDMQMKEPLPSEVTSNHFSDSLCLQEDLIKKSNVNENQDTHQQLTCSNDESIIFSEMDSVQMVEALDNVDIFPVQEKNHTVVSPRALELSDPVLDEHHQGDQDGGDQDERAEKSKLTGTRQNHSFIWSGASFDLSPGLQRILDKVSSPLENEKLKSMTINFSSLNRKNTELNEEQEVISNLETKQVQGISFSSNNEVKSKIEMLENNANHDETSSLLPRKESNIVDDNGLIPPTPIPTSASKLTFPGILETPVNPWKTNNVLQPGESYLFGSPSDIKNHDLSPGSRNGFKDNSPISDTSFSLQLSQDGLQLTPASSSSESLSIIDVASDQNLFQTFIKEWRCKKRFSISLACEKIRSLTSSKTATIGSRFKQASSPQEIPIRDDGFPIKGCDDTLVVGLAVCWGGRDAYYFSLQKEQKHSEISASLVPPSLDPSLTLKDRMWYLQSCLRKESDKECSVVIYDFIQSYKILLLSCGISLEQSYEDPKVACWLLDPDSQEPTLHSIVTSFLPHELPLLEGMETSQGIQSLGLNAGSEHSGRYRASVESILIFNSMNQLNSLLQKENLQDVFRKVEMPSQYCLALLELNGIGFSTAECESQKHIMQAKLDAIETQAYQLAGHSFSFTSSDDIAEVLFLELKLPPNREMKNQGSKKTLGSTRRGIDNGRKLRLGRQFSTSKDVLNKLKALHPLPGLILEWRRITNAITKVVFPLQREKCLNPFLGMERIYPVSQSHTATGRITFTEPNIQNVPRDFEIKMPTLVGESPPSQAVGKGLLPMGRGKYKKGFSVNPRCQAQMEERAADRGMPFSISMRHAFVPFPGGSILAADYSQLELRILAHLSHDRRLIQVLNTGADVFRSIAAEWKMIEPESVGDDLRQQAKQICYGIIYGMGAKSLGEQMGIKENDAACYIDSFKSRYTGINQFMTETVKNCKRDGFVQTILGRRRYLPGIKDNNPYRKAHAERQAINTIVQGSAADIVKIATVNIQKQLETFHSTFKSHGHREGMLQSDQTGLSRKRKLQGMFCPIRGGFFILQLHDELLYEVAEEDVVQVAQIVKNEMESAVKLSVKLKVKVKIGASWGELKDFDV
# Effect on: enzyme activity
# Action: inhibitor
# Concentration: 77 µM
# Reference: untreated
Compound,remaining activity [%]
CC(C)NC[C@@H](O)c1ccc(O)c(O)c1,100
C[C@@H]1O[C@@H](O[C@H]2[C@H](Oc3cc(O)c(C(=O)CCc4ccc(O)cc4)c(O)c3)O[C@H](CO)[C@@H](O)[C@@H]2O)[C@H](O)[C@H](O)[C@H]1O,85.1
"C[N+]1(C)C2CC(OC(=O)[C@H](CO)c3ccccc3)CC1C1OC12 (single isomer, unassigned; (-))",99.2
NC(=O)c1cnc(N[C@@H]2CCCC[C@@H]2N)nc1Nc1cccc(-n2nccn2)c1,98.2
C=C1CC[C@@H]2[C@](C)(CO)[C@H](O)CC[C@@]2(C)[C@@H]1C/C=C1/C(=O)OC[C@H]1O,102
CC(=O)Nc1c(I)c(C(=O)N[C@H]2C(O)O[C@H](CO)[C@@H](O)[C@@H]2O)c(I)c(N(C)C(C)=O)c1I (stereo partly drawn),97.5
COC(=O)C1=C(C)NC(C)=C([N+](=O)[O-])C1c1ccccc1C(F)(F)F (stereo not drawn),101
COC(=O)/C=C/C(=O)OC,102
O=C(O)C=Cc1cc(Br)c(Br)c(Br)c1Br,102

# Study 3
# Target: Calcium/calmodulin-dependent protein kinase type II subunit alpha (CAMK2A, Homo sapiens, UniProt Q9UQM7)
# UniProt Q9UQM7, sequence (whole entry, looked up): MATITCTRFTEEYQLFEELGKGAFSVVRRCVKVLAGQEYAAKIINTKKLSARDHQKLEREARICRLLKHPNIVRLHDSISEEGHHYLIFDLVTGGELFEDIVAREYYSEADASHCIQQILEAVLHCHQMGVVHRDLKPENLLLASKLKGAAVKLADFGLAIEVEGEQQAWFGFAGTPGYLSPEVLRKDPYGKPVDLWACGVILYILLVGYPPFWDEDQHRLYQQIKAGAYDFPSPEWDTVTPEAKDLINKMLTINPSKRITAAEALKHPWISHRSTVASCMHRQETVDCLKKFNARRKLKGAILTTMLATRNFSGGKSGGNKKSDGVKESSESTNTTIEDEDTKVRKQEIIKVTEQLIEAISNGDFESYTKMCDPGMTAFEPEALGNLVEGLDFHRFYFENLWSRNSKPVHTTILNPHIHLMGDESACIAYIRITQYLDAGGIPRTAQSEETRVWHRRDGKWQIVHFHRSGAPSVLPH
# Effect on: enzyme activity
# Action: inhibitor
# Concentration: 10 µM
Structure (SMILES),inhibition [%]
CNC(=O)c1ccc(-c2cnc3ncc(Cc4ccc5ncccc5c4)n3n2)cc1F,7
O=C(OCC1=C[C@@H](O)[C@@H]2C=CO[C@@H](O[C@@H]3O[C@H](CO)[C@@H](O)[C@H](O)[C@H]3O)[C@H]12)c1ccc(O)cc1,11
c1ccc(Cc2nc3ccccc3[nH]2)cc1,-14
CCCCCCCCCCCCCCCCCCCCCC(=O)O,-9
C=CCN1CCc2nc(N)sc2CC1,-10
CCCCCCCCCCCCCCCCCCCCCCCCC(=O)O,-6
Nc1nc2c([nH]c(=O)n2[C@H]2C[C@H](O)[C@@H](CO)O2)c(=O)[nH]1,-26
NC(=O)c1ccc[n+]([C@@H]2O[C@H](COP(=O)([O-])O)[C@@H](O)[C@H]2O)c1,18
CC1(C)C[C@H]2C3=CC[C@@H]4[C@@]5(C)CC[C@H](O)[C@@](C)(CO)[C@@H]5CC[C@@]4(C)[C@]3(C)C[C@H](O)[C@@]2(CO)[C@@H](O)[C@@H]1O,-33

# Study 4
# Host: mouse
# Medium: microsomes or S9
# Concentration: 2 µM
# Time: 0.5 h
Structure (SMILES),remaining compound [%]
Clc1ccc(-c2csc3ncnc(N4CCCCC4c4ncc[nH]4)c23)cc1 (stereo not drawn),0.997
CCCc1nc2c(c(C)c(C)n2Cc2ccncc2)c(N)c1CC,5.19
O=C1CC(c2ccc3c(c2)OCO3)c2c(n[nH]c2-c2ccccc2)N1 (stereo not drawn),47.2
COc1ccc(N2C(=O)CC(NNC(=O)c3cc(C(F)(F)F)n[nH]3)C2=O)cc1 (stereo not drawn),35.7
CCCS(=O)(=O)N1CCN(S(=O)(=O)c2ccc(NC(C)=O)cc2)CC1,0.19
CC(=O)Nc1cc(F)c(F)cc1NC(=O)CCNC(=O)C(C)(C)C,80.6
O=c1[nH]cccc1-c1nc(-c2cccc(Br)c2)no1,11.3
CCn1nc(-c2csc(C)n2)nc1-c1ccc2[nH]c(C)nc2c1,> 100

# Study 5
# SMILES: CO[C@@H]1[C@H](N(C)C(=O)c2ccccc2)C[C@H]2O[C@]1(C)n1c3ccccc3c3c4c(c5c6ccccc6n2c5c31)C(=O)NC4
# Action: inhibitor
# Concentration: 1 µM
target,test,inhibition
"Serine/threonine-protein kinase 10 (STK10, Homo sapiens, UniProt O94804)",enzyme activity,35%
"Serine/threonine-protein kinase PAK 1 (PAK1, Homo sapiens, UniProt Q13153)",enzyme activity,20%
"Ribosomal protein S6 kinase alpha-6, C-terminal kinase domain (RPS6KA6, Homo sapiens, UniProt Q9UK32)",,12%
"Mitogen-activated protein kinase kinase kinase 12 (MAP3K12, Homo sapiens, UniProt Q12852)",enzyme activity,28%
"Mitogen-activated protein kinase 11 (MAPK11, Homo sapiens, UniProt Q15759)",enzyme activity,0%
"Dual serine/threonine and tyrosine protein kinase (DSTYK, Homo sapiens, UniProt Q6XUX3)",enzyme activity,28%

# Repeated from above (study 3):
Structure (SMILES),inhibition [%]
c1ccc(Cc2nc3ccccc3[nH]2)cc1,-14
O=C(OCC1=C[C@@H](O)[C@@H]2C=CO[C@@H](O[C@@H]3O[C@H](CO)[C@@H](O)[C@H](O)[C@H]3O)[C@H]12)c1ccc(O)cc1,11
CC1(C)C[C@H]2C3=CC[C@@H]4[C@@]5(C)CC[C@H](O)[C@@](C)(CO)[C@@H]5CC[C@@]4(C)[C@]3(C)C[C@H](O)[C@@]2(CO)[C@@H](O)[C@@H]1O,-33
NC(=O)c1ccc[n+]([C@@H]2O[C@H](COP(=O)([O-])O)[C@@H](O)[C@H]2O)c1,18
CCCCCCCCCCCCCCCCCCCCCC(=O)O,-9
